# Published values gathered from unrelated publications.
# Every numbered part comes from another study and shows a few of its results, in no order.

# Block 1
# Target: Ras GTPase-activating protein-binding protein 1, full length (G3BP1, Homo sapiens, UniProt Q13283)
# Chain of UniProt Q13283 (whole entry, looked up): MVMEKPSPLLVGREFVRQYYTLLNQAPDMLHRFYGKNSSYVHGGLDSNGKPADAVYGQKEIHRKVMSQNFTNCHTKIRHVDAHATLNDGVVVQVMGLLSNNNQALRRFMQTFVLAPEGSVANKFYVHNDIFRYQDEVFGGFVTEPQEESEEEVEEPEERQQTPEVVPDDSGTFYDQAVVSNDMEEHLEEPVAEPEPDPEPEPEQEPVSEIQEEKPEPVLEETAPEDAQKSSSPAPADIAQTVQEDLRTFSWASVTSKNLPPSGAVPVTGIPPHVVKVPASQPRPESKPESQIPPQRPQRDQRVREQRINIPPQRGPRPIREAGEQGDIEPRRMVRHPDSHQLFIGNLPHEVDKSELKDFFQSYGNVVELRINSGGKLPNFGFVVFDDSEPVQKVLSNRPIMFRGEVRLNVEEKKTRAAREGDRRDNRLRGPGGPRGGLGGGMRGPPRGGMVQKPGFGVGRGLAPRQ
# Method: RNA Bind-n-Seq
# Molecule type: RNA
# Medium: in vitro
# Tested at: 200 nM
# Notes: whole 134-nt RNA, ends assumed
# Added: 150 mM LiCl
# Reference: input library
# Direction: higher = stronger binding
# Each molecule: 7-deaza-guanosine replaces G
# Shared flanks, not repeated: GGGAGUUCUACAGUCCGACGAUC … UGGAAUUCUCGGGUGUCAAGG
Strand,log2 enrichment
AAGUCCUGUGCUACACAUCGUAUGUACCGAAUCAAAUUUAAAUUUAAAUUUUUAAAAAAGUAUUAUGUUACGCCGUUCGGAUCUGCACUU,-2.34
UAACUUUAGAGGAGGAUCUGAUGGAUAUGGCAGUGGACGUGGAUUUGGGGAUGGCUAUAAUGGGUAUGGAGGAGGACCUGGAGGUGGCAG,-0.0581
UUCAGUUAUUCAAGCGGAGAAAUGUUGCUACAGCAGAAGAAGAAACAGAAGAAGAAGUUAUGUCAGAUGGAGGCUUUCAUGAGGCUCAGA,-2.74
UCCUGUGCUACACAUCGUAUGUACCGAAUCAAACCCCCCCAAACCCCCAAACCCCCAAAAAAGUAUUAUGUUACGCCGUUCGGAUCUGCA,0.0838
AGUCCUGUGCUACACAUCGUAUGUACCGAAUCGGGGUUUUUGGGGAAAGGGGAGGGGAAAGUAUUAUGUUACGCCGUUCGGAUCUGCACU,-0.122
UAACUUUAGAGGAGGAUCUGAUGGAUAUGGCAGUGGACGUGGAUUUGGGGAUGGCUAUAAUGGGUAUGGAGGUGGACCUGGAGGUGGCAA,0.0738
AGUCCUGUGCUACACAUCGUAUGUACCGAAUCGGGGUGGGGUGGGGAAAAAAAGGGGAAAGUAUUAUGUUACGCCGUUCGGAUCUGCACU,0.141
ACCAUGCAGGUGGGCAUCUUUGGGAAGUGGGGCAAGGGGGGGAUAGGGAGGGGGGUAACAUUUUGGGAACAGGUGGUCCCAGGUCGUUUC,0.145
GUCCUGUGCUACACAUCGUAUGUACCGAAUCAAACCCCCCCAAACCCAAAUUUUUAAAAAAGUAUUAUGUUACGCCGUUCGGAUCUGCAC,0.741
UAACUUUAGAGGAGGAUCUGAUGGAUAUGGCAGUGGACGUGGAUUUUGGGAUGGCUAUAAUGGGUAUGGAGGAGGACCUGGAGGUGGCAA,-0.256
UCCUGUGCUACACAUCGUAUGUACCGAAUCAAAUUUUUAAAUUUUUUUAAACCCCCAAAAAAGUAUUAUGUUACGCCGUUCGGAUCUGCA,0.716

# Block 2
# Target: TAR DNA-binding protein 43, full length, His tag (TARDBP, Homo sapiens, UniProt Q13148, residues 1-414)
# Method: RNA Bind-n-Seq
# Molecule type: RNA
# Medium: in vitro
# Tested at: 20 nM
# Notes: 6-mer, flanks averaged, single round
# Added: 150 mM LiCl
# Reference: input library
# Direction: higher = stronger binding
Strand,6-mer enrichment (R)
CCAGCA,0.912
GACUCC,0.968
UUCUAU,0.971
GUCACG,0.894
CCUCAG,0.887
ACUUUA,0.946
UGCGGC,1.05
AACCCU,0.952
CUGAUA,0.833
GCCCAC,1
ACCUGG,0.876
GGUCCA,0.903
AAGAAU,0.992
CAUUGA,0.86
GUUUUU,1.57
AAUACG,0.848
GGAAUU,0.982

# Block 3
# Target: Histone acetyltransferase KAT6A, winged helix 2, GST fusion (KAT6A, Homo sapiens, UniProt Q92794, residues 85-181)
# Method: protein binding microarray
# Molecule type: double-stranded DNA, one strand shown
# Medium: in vitro
# Tested at: not given
# Notes: 8-mer, flanks averaged, mean of 2 arrays, mostly near background
# Reference: not given
# Direction: higher = stronger binding
# Residues (chain): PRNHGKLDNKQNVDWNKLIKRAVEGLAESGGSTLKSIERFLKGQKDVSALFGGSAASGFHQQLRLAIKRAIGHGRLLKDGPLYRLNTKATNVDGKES
Strand,E-score
AAAGCCTT,-0.168
ACAAGGAC,-0.0724
TGATAACA,-0.022
AGCGCTTC,0.0529
CAAGGTGC,0.00816
ACAGGTAG,-0.257
AAATGCGG,0.0343
GGTATATA,0.00411
CAGGCTAC,0.0226
AAGGGTGC,-0.0182
ATGAAGGC,-0.0712
CCCTTCTA,-0.0954
CCACTCAA,0.185
CATCCACC,0.0315
CTAGAACC,-0.145
ACTCTCGA,0.0511
GTCTGTAA,-0.0255

# Block 4
# Target: RNA binding protein fox-1 homolog 2, RRM domain, GST-SBP tag (RBFOX2, Homo sapiens, UniProt O43251-10, residues 100-194)
# Method: RNA Bind-n-Seq
# Molecule type: RNA
# Medium: in vitro
# Tested at: 365 nM
# Notes: natural RNA segment, single round, ends assumed
# Reference: no-protein control
# Direction: higher = stronger binding
# Shared flanks, not repeated: GGGAGUUCUACAGUCCGACGAUC … UGGAAUUCUCGGGUGCCAA
# Construct (chain): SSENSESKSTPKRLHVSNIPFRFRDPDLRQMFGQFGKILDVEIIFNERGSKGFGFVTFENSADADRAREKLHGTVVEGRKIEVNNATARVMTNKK
Strand,RBNS enrichment (R)
UGCACCAGCAUCAAACAUUGUGUGUGUGGAAGGGAAGAAGCCUGUCCAUUCUAAACGCAGUUGCCAGUCUCAUCACUUCAGGUCCUUACGGGCAGGCUCUAGCAACUUUC,0.627
CUAGUGUUUGUGCUAACCUAGUCAGAAGCAAGUGUCUCACUCACUUGCUGCAGAUGGAACAAAUGCCGCCUGGCUUUGUAUUCCCCUUUAGGAUUCUAUUACAUAUGCAA,0.227
GUUUUUGUUUUUGUUUUUUUCUGGAUAAGGAAAACAGAGAACAACAAUAGAUACCGCUGAAGGAUCCUUGGAGUCCAUCAUCCAUAUCUCAGUGGUCAUUCUUCUGCCUU,0.292
CCUAACAGUACAGAGCCAUGACUCAAUAAAUACAUGUUAAAUGGAUGAAUGAAUUCCUCUGAAACUCAUUUGAGCUUAUUUAGUCAAAUUCUUUCACUAUUCAAAGUGUG,0.43
ACAGGACCAGAUUUUGGAGUCAUGGUCCGGUGUCCUUUUCACUACACCAUGUUUGAGCUCAGACCCCCACUCUCAUUCCCCAGGUGGCUGACCCAGUCCCUGGGGGAAGC,0.237
UUUAAUGAUCUCACCCCUGAGUUUCUUUUUCAUUAAAGUAGCUUUCAUUUCUAUUAUUCCAAUUUACUGAUAUGAACAAAUAGAAGGUCCGUGUGAGCAGACGCUCAGAA,0.3
GCUCUUCCCACUCCUUCAAGUUGCCCUCACAAACCAAUGUGGCAAGACUACUGGACUUGUAUCCAUGGUACUAUACUCAGUCCUCUUAUCUCAGCUUGCUGAGGGGCAGG,0.238
UUUUUCCAAGCACUUUAACUUCAGAAAUGGUCUUGACACUUUUUUCUCCACAUAGACUCUUGAAAUAGCCAUUUCAGGGGAGGAAAGGGUUGGGGUUUUCUUUGUUUGUU,0.736
UCCAUUUUUAAGUGCUUAAAUGAGUACUAUAUUGCAAUAAAAAAUGUAGCGAUAUUAAAAAAAAUGUAGCGAUAUAAUUAACCAGCCAUUAAAAAUUUACUUCUACAGAU,0.7
UGGUCUUGAACUCCUCACCUCAGGUGAUCCACAUGACUCUGCCUCCCAAAGUGCUGCCAUUACAGGCGUGAGCCACUAGGCCUGACCUCCCCUUCCCCUUUCCUGCCCCA,0.63
UCAGACAAGUCUGGGAUUAGAGCCUCAAGGACAUUGUGUGAUUGCCUCACAUUUGCAGGUAAUAUCAAGCAGCAAACUAAAUUCUGAGAAAUAAACGAGUCUAUUACUGU,0.306
AGCACAGAAACAGAGCAGAAAGUAGUACAAUCAUGUUGGACCUUCUUUCUGUUCUCUUUACUCUUCUCACAGAUCAGAUCACUCCAUAGAAGCCUGUGGGUUUCGAUGGU,0.244

# Block 5
# Target: Interferon regulatory factor 7, full length, phosphomimetic (IRF7, Homo sapiens, UniProt Q92985, residues 1-503, S471D/S472D/S475D/S476D/S477D/S483D/S484D/S487D)
# Method: protein-binding microarray
# Molecule type: double-stranded DNA, one strand shown
# Medium: in vitro
# Tested at: 2200 nM top
# Notes: 60-bp whole probe
# Added: salmon DNA 0.4 mg/ml
# Reference: random background probes
# Direction: higher = stronger binding
# Shared flanks, not repeated: GCCTAGCAC … GTCTTGATTCGCTTGACGCTGCTG
# Construct (chain): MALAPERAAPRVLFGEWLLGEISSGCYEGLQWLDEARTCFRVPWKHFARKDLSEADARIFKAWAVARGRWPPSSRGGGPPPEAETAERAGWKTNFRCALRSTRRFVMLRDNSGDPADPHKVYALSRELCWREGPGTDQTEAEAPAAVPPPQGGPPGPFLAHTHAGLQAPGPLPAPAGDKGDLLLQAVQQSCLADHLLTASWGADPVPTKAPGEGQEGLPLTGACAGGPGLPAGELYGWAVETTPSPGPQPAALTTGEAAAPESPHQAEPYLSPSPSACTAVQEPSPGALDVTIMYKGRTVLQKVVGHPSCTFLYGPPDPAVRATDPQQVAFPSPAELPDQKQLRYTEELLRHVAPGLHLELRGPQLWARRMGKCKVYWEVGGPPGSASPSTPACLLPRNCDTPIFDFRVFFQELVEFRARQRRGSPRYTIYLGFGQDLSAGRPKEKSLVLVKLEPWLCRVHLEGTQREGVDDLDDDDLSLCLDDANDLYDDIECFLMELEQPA
Strand,fitted relative affinity [z-score]
GACGGTATCGGCATCGGGACGTGCTAG,-0.43
TGAGGTATCGACTTTCGGTTAGTGCTA,5.56
TTAGATTTCAGGTCCGATTAGTGCTAG,0.857
TTAGATTTCAGACCGGATTAGTGCTAG,-0.0792
GAGGATTTCGGGTATCGAGACGTGCTA,2.07
GACGAACTGGGGACTGGAAACGTGCTA,0.167
TCACCTATGTCATTTACACTGTGCTAG,1.81
TTTGGACTGCTTATCCTTTAGTGCTAG,0.912
TTAGGACTGGCCTATCGGTTAGTGCTA,-0.547
CTGTCATCATCGTTCCCAGCGTGCTAG,1.58
TTAGGTTTCGGGACTGGGTGAGTGCTA,3.34
ATTCTTTGCTCATTTTTCAGGGTGCTA,1.29
TCAGGTCTCCCTTGAGGTTTGTGCTAG,0.199
TAAGAACTGAGTCTCGATTAGTGCTAG,-0.177
TTAGGTATCGGGCTGGGTTAGTGCTAG,-0.145
GACGCTATCCTTATCCTGACGTGCTAG,1.65
TTAGTTCTCGGTATCGGTTAGTGCTAG,1.77
GACGGTATCGGTCTCGAGACGTGCTAG,0.174
TTAGGTTTCCTTTCCCTCTAGTGCTAG,4
TCATTTTTGGTTTCTGGACTGTGCTAG,5.67
TCAGCTCTCTGGACTGTGACTGTGCTA,0.52
TTTGGTTTCGGGTTTCGGTTAGTGCTA,11.9
TTAGGTATCCGTTTCGGTTAGTGCTAG,3.84
GACGGTCTCGGTCTGGGGACGTGCTAG,-0.197
TCACTTCCCCATCTTGTACTGTGCTAG,3.36

# Some of these lines once more (block 5):
Strand,fitted relative affinity [z-score]
TTAGGTATCCGTTTCGGTTAGTGCTAG,3.84
GAGGATTTCGGGTATCGAGACGTGCTA,2.07
GACGGTATCGGTCTCGAGACGTGCTAG,0.174
GACGGTATCGGCATCGGGACGTGCTAG,-0.43
TTAGGTATCGGGCTGGGTTAGTGCTAG,-0.145
